Experimental data collected from several papers.
Compare with care: the assays were run in different laboratories. ± gives the spread as reported.

SMILES	tested on	assay	test system	setting	how to read	measurement	result
Cc1cccc(-c2nc(Nc3ccncn3)c3sccc3n2)n1	Streptococcus pyogenes	microbial growth, broth dilution	1308007P	–	–	MIC	> 64 µM
Cc1cc(Oc2nc(N3CC[C@@H](c4ccncc4)C3)ncc2F)[nH]n1	Mycobacterium tuberculosis	–	THP-1, H37Rv non-replicating	day 4 + 1	–	IC50	0.66 µM
O=C1/C(=N\NC(=S)NN=Cc2cccs2)c2ccccc2N1Cc1ccccc1	influenza B virus	viral cytopathogenicity, visual CPE score	MDCK	–	–	EC50	> 4 µM
CCCC[C@H](NC(=O)CNC(=O)CNC(=O)c1ccc(NN)nc1)C(=O)N[C@H]1CC(=O)NCCCC[C@@H](C(N)=O)NC(=O)[C@H](Cc2c[nH]c3ccccc23)NC(=O)[C@H](CCCNC(=N)N)NC(=O)[C@@H](Cc2ccccc2)NC(=O)[C@H](Cc2c[nH]cn2)NC1=O [technetium-99m labelled]	–	–	C57 mouse, B16/F1 melanoma-bearing	intravenous, 24 h	baseline: tumour over muscle	tissue uptake ratio	151
N=C(N)NCCC[C@@H]1NC(=O)[C@H](CCCCNC(=O)CC[C@H](NC(=O)CCOCCOCCOCCOCCNC(=O)CN2CCN(CC(=O)O)CCN(CC(=O)O)CCN(CC(=O)O)CC2)C(=O)NCCCC[C@@H]2NC(=O)[C@@H](Cc3ccccc3)NC(=O)[C@H](CC(=O)O)NC(=O)CNC(=O)[C@H](CCCNC(=N)N)NC2=O)NC(=O)[C@@H](Cc2ccccc2)NC(=O)[C@H](CC(=O)O)NC(=O)CNC1=O [indium-111 labelled]	–	–	athymic nude mice, female, U-87 MG glioma xenograft, tumour and kidney	intravenous, 4 h	baseline: tumour over kidney	tumour to tissue ratio	1.39 ± 0.18
CC(CCC(=O)[O-])C1CCC2C3CCC4CC(O)CCC4(C)C3CC(O)C12C.C[N+](C)(C)CC(O)CC(=O)O (centres unmarked)	Salmonella enterica Typhimurium	–	TISTR 1470	1 mg per disc, 18 to 24 h, 37 °C, 6 mm disc	–	inhibition zone	inactive
Cc1ccc2nc(C(F)(F)F)c(C(=O)NCc3cccc(Cl)c3)n2c1	Streptococcus pyogenes	microbial growth, broth dilution	1308007P	–	–	MIC	16 µM
O=C1C[C@@H](c2ccc(O)cc2)Oc2cc(O)ccc21	–	–	Sprague-Dawley rat, Freund's adjuvant arthritis	oral, 10 mg/kg, 1 h, together with: aconitine 1 mg/kg	–	hind paw volume	1.79 ± 0.11 mL
COC(=O)C1NC(=O)C2NC(=O)C(NC(=O)C3NC(=O)C4NC(=O)C(NC(=O)C(Nc5c(NCCCCCCO)c(=O)c5=O)c5ccc(O)c(c5)Oc5cc4cc(O)c5C)C(O)c4ccc(cc4)Oc4cc3cc(c4O)Oc3ccc(cc3)C2O)c2ccc(O)c(c2)-c2c(O)cc(O)cc21 (centres unmarked)	influenza virus	viral replication	–	–	–	EC50	1 µM
CCN(CC)Cc1cc(Nc2c(C3CCCC3)c(C)nc3cc(Cl)ccc23)ccc1O	dengue virus type 2	replicon replication, luciferase reporter	BHK-21 DENV2 Rluc replicon	50 µM, 24 h	–	inhibition	inhibited
COc1ccc(CCNc2cc(-c3ccccc3)nc3ncnn23)cc1	Streptococcus pyogenes	microbial growth, broth dilution	1308007P	–	–	MIC	16 µM
CN[C@@H]1[C@H](O)[C@H](NC)[C@H]2O[C@]3(O)[C@H](O[C@@H]2[C@H]1O)O[C@H](C)C[C@H]3NC(=O)Cc1ccc(O)cn1	Mycobacteroides abscessus	microbial growth	ATCC19977	5 days	–	MIC	64 µg/mL
CC[C@H](C)[C@H](NC(=O)[C@H](CC(C)C)NC(=O)CNC(=O)[C@H](CCCCN)NC(=O)[C@@H](NC(=O)[C@@H](NC(=O)[C@H](CC(N)=O)NC(=O)[C@H](Cc1c[nH]c2ccccc12)NC(=O)[C@@H](NC(=O)[C@H](CCC(=O)O)NC(=O)CNC(=O)[C@H](Cc1c[nH]c2ccccc12)NC(=O)[C@@H](N)CC(C)C)[C@@H](C)CC)[C@@H](C)O)C(C)C)C(N)=O	Herpes simplex virus 1	viral attachment, plaque reduction	Vero, F	1 h, 4 °C	–	IC50	3.7 µg/mL
COc1cc(O)c2c(=O)c(O)c(-c3ccc(OC)c(O)c3)oc2c1	Gram-positive and Gram-negative bacteria	–	–	–	–	MIC	> 100 µg/mL
Cc1cn(C2CC(N(C)C)C(CO)O2)c(=O)[nH]c1=O (centres unmarked)	influenza B virus	viral cytopathic effect	MDCK	–	–	EC50	> 0.37 µM
COc1ccc2nc(C)cc(OCC(=O)Nc3cc(C)cc(C)c3)c2c1	Streptococcus pyogenes	microbial growth, broth dilution	1308007P	–	–	MIC	16 µM
COC(=O)C1NC(=O)C2NC(=O)C(NC(=O)C3NC(=O)C4NC(=O)C(NC(=O)C(Nc5c(Nc6cccc7ccccc67)c(=O)c5=O)c5ccc(O)c(c5)Oc5cc4cc(O)c5C)C(O)c4ccc(cc4)Oc4cc3cc(c4O)Oc3ccc(cc3)C2O)c2ccc(O)c(c2)-c2c(O)cc(O)cc21 (centres unmarked)	influenza virus	viral replication	–	–	–	EC50	1.4 µM
CON(C(=O)c1cn(C)nc1C(F)F)C(C)Cc1c(Cl)cc(Cl)cc1Cl (centres unmarked)	Fusarium graminearum	microbial growth	–	1.56 µg/mL	–	inhibition	98.3%

SMILES	tested on	assay	test system	setting	how to read	measurement	result
CCn1c2ccccc2c2cc(/C=N/NC(=O)Cn3ccc(=O)c4ccccc43)ccc21	Fusarium graminearum	microbial growth	–	50 µg/mL	–	inhibition	26.2%
O=[N+]([O-])NC1=NCCN1Cc1ccc(Cl)nc1	Trialeurodes vaporariorum	leaf-dip assay, adults	–	72 h	baseline: LC50 resistant over susceptible strain	resistance ratio	7
COc1ccc2nc(C)cc(OCC(=O)Nc3ccccc3OC)c2c1	Streptococcus pyogenes	microbial growth, broth dilution	1308007P	–	–	MIC	16 µM
COc1ccc(-c2cc(=O)c3c(O)c(OC)c(O)c(OC)c3o2)cc1O	VSV-pseudotyped HIV-1	viral replication	MT-2	48 h	–	IC50	10.6 µM
CC(CCC(=O)[O-])C1CCC2C3CCC4CC(O)CCC4(C)C3CCC12C.C[N+](C)(C)CC(O)CC(=O)O (centres unmarked)	Salmonella enterica Typhimurium	–	TISTR 1470	1 mg per disc, 18 to 24 h, 37 °C, 6 mm disc	–	inhibition zone	inactive
CN(C)CC1CCCCC1(O)c1cccc(O)c1 (centres unmarked)	human P-glycoprotein	–	Caco-2 TC7 monolayer	100 µM, 3 h, apical pH 7.4, basolateral pH 7.4, together with: cyclosporine A 10 µM	–	Papp A-to-B	11.7 ± 1.1 ×10⁻⁶ cm/s
CCc1ccc([C@@H]2C[C@H](C(F)(F)F)n3ncc(C(=O)NCc4ccc(OC)cc4)c3N2)cc1	Streptococcus pyogenes	microbial growth, broth dilution	1308007P	–	–	MIC	64 µM
CC(=O)[O-].O.[Cu+2].[O-]c1ccc(Br)cc1C=NCCN1CCOCC1	Salmonella enterica	–	serovar Typhi	20 µL of 100 µM per disc	–	inhibition zone diameter	16 mm
COc1ccc(Br)cc1/C=N/NC(=O)Cn1ccc(=O)c2ccccc21	Fusarium graminearum	microbial growth	–	50 µg/mL	–	inhibition	21.4%
CC[C@H](C)C(=O)N1CCC(NC(=O)Nc2ccc(OC(F)(F)F)c(F)c2)CC1	–	–	healthy volunteers	oral, 8 mg single dose	–	subjects with serious TEAE	0%
CN1CC(=O)N=C1N.C[C@H](CCC(=O)O)[C@H]1CC[C@H]2[C@@H]3[C@H](O)C[C@@H]4C[C@H](O)CC[C@]4(C)[C@H]3CC[C@]12C	Salmonella enterica Typhimurium	–	TISTR 1470	1 mg per disc, 18 to 24 h, 37 °C, 6 mm disc	–	inhibition zone	inactive
CN[C@](C)(C[18F])C(=O)O	MDA-MB-468 tumour model	–	host not given, muscle	1 h, tumour-bearing	–	tracer uptake	1.3 %ID/g
CC[C@H](C)[C@H](NC(=O)[C@@H](NC(=O)[C@H](CC(=O)O)NC(C)=O)[C@@H](C)O)C(=O)N[C@@H](CCCNC(=N)N)C(=O)N[C@@H](CC(C)C)C(=O)N[C@@H](CC(C)C)C(=O)N[C@@H](Cc1ccccc1)C(=O)N[C@@H](CCC(N)=O)C(=O)N[C@@H](CC(C)C)C(=O)N[C@@H](CCSC)C(=O)N[C@@H](CCCNC(=N)N)C(=O)N1CCC[C@H]1C(=O)N1CCC[C@H]1C(=O)N[C@@H](CC(N)=O)C(=O)N[C@@H](CCSC)C(=O)N[C@H](C(=O)N1CCC[C@H]1C(=O)N[C@@H](C)C(=O)N[C@H](C(=O)N[C@@H](CC(N)=O)C(=O)N[C@@H](C)C(N)=O)C(C)C)[C@@H](C)O	–	refers to: HA-23 tetramer	antigen-experienced tetramer+ CD4 T cells, healthy adults, HLA-DRB1*0101	dose not given	–	α4β7− CCR9+ cells	0%
CN1CC(=O)N=C1N.C[C@H](CCC(=O)O)[C@H]1CC[C@H]2[C@@H]3CC[C@@H]4C[C@H](O)CC[C@]4(C)[C@H]3C[C@H](O)[C@]12C	Salmonella enterica Typhimurium	–	TISTR 1470	1 mg per disc, 18 to 24 h, 37 °C, 6 mm disc	–	inhibition zone	inactive
COC(=O)[C@]1(C)CCC[C@]2(C)[C@H]3C[C@H]4C(C(C)C)=C[C@]3(CC[C@H]21)[C@H]1[C@@H]4[C@@H](OCC#CCN2CCCC2)CC[C@@H]1O	influenza A virus A/Puerto Rico/8/34 (H1N1)	–	MDCK	concentration not given	baseline: compound over oseltamivir	relative antiviral activity	25
N=C(N)NCCC[C@@H]1NC(=O)[C@H](CCCCNC(=O)CC[C@H](NC(=O)CCOCCOCCOCCOCCNC(=O)CC[C@H](NC(=O)CN2CCN(CC(=O)O)CCN(CC(=O)O)CCN(CC(=O)O)CC2)C(=O)NCCOCCOCCOCCOCCC(=O)N[C@@H](CCC(=O)NCCCC[C@@H]2NC(=O)[C@@H](Cc3ccccc3)NC(=O)[C@H](CC(=O)O)NC(=O)CNC(=O)[C@H](CCCNC(=N)N)NC2=O)C(=O)NCCCC[C@@H]2NC(=O)[C@@H](Cc3ccccc3)NC(=O)[C@H](CC(=O)O)NC(=O)CNC(=O)[C@H](CCCNC(=N)N)NC2=O)C(=O)NCCCC[C@@H]2NC(=O)[C@@H](Cc3ccccc3)NC(=O)[C@H](CC(=O)O)NC(=O)CNC(=O)[C@H](CCCNC(=N)N)NC2=O)NC(=O)[C@@H](Cc2ccccc2)NC(=O)[C@H](CC(=O)O)NC(=O)CNC1=O [indium-111 labelled]	–	–	athymic nude mice, female, U-87 MG glioma xenograft, tumour and liver	intravenous, 24 h	baseline: tumour over liver	tumour to tissue ratio	4.19 ± 1.04
CC/C=C\C/C=C\C/C=C\C/C=C\C/C=C\C/C=C\CCC(=O)Nc1ccn(C2OC(CO)C(O)C2(F)F)c(=O)n1 (centres unmarked)	DU-145	NCI60 screen	–	–	–	CC50	35.3 µM

For quick reference, copied from above:
SMILES	tested on	assay	test system	setting	how to read	measurement	result
COc1ccc2nc(C)cc(OCC(=O)Nc3ccccc3OC)c2c1	Streptococcus pyogenes	microbial growth, broth dilution	1308007P	–	–	MIC	16 µM
COc1ccc2nc(C)cc(OCC(=O)Nc3cc(C)cc(C)c3)c2c1	Streptococcus pyogenes	microbial growth, broth dilution	1308007P	–	–	MIC	16 µM
CC(CCC(=O)[O-])C1CCC2C3CCC4CC(O)CCC4(C)C3CCC12C.C[N+](C)(C)CC(O)CC(=O)O (centres unmarked)	Salmonella enterica Typhimurium	–	TISTR 1470	1 mg per disc, 18 to 24 h, 37 °C, 6 mm disc	–	inhibition zone	inactive
CN1CC(=O)N=C1N.C[C@H](CCC(=O)O)[C@H]1CC[C@H]2[C@@H]3CC[C@@H]4C[C@H](O)CC[C@]4(C)[C@H]3C[C@H](O)[C@]12C	Salmonella enterica Typhimurium	–	TISTR 1470	1 mg per disc, 18 to 24 h, 37 °C, 6 mm disc	–	inhibition zone	inactive
CCCC[C@H](NC(=O)CNC(=O)CNC(=O)c1ccc(NN)nc1)C(=O)N[C@H]1CC(=O)NCCCC[C@@H](C(N)=O)NC(=O)[C@H](Cc2c[nH]c3ccccc23)NC(=O)[C@H](CCCNC(=N)N)NC(=O)[C@@H](Cc2ccccc2)NC(=O)[C@H](Cc2c[nH]cn2)NC1=O [technetium-99m labelled]	–	–	C57 mouse, B16/F1 melanoma-bearing	intravenous, 24 h	baseline: tumour over muscle	tissue uptake ratio	151
